Measurements collected from several papers.
Every numbered part comes from another study and shows a few of its results, in no order. Positions count from the first letter of the parent shown.

Sample 1
Target: CCNF, cyclin fold, Cln2 fusion (human)
Method: yeast growth competition, sequencing
Medium: yeast
Notes: strong parent motif
Reference: not given
Direction: higher = stronger binding
Measurement: normalised enrichment score
Starting sequence: SLBP docking peptide (human); ARYKRKLLINDFG
K4Q: 0.977
R2P: 2.04
I9M: 2.79
F12E: 1.2
L7D: 1.23
A1V: 1.18
G13D: 0.973
A1R: 1.64
N10C: 1.76
K4T: 0.263
G13P: 2.02
Y3N: 1.06
K4R: 1.28
Y3E: 0.881
F12S: 0.841

Sample 2
Target: RING finger protein unkempt homolog, zinc fingers 1-6, GST-SBP tag (UNK, Homo sapiens, UniProt Q9C0B0, residues 30-357)
Method: RNA Bind-n-Seq
Molecule type: RNA
Medium: in vitro
Concentration: not given
Notes: RNA with constant flanks, human and mouse sites, ends assumed
Reference: input RNA pool
Direction: higher = stronger binding
Measurement: bound/input enrichment
Constant ends, left off below: GGGAGUUCUACAGUCCGACGAUC … CAACAGAGGAUUGAGCAUCA
Target sequence (chain): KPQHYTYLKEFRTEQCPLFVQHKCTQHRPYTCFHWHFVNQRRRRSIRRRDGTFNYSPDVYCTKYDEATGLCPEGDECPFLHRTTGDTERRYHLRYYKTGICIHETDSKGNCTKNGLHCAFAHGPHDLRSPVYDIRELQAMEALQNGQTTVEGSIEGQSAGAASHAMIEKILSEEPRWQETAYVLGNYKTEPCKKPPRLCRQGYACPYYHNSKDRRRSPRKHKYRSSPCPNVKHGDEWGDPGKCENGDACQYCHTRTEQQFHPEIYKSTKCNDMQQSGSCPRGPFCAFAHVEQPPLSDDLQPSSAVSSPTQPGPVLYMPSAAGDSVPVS
CACUCUCACCCUGAAGGAACGGGAGCGGCUGAAGAAAAGGAUUCUGGAUGAAAUUGAAGAACAUAACAUCAAAAUCUAUCACUUACCUGAUGCAGAAUCAGAUGAAGAUGAAGAUUUUAA: 0.138 ratio
GCUGAUUUUGAGAAGGUUUUCUGCAUUGGACCAGUUUUCAGAGCUGAAGACUCCAAUACCCAUAGACAUCUGACUGAAUUUGUUGGUUUGGAUAUUGAAAUGGCCUUUAAUUAUCAUUAC: 0.608 ratio
GCAAUGGCUGCGGCUGCAGCAGCUUCUCACCUGAACCUGGAUGCCCUCCGGGAAGUGCUAGAAUGUCCCAUCUGCAUGGAGUCCUUCACUGAAGAGCAGCUGCGACCCAAGCUGCUGCAC: 0.0743 ratio
UCAGUGAUUAUUUUUCCAGCUCCGUGUUUCUCUAAGGAAUUAUUUCACACACGGACCAUCUUUAGCAGUUUCCUCAGUGAUGGAAUAUCAUGAAUGUGAGUCAUUAUGUAGCUGUCGUAC: 0.572 ratio
AAGCUCCCAGUGUGGGUGGUGGAGGAUCAUCAGGAGGUUCUACCCUUUAUAUACCGGGCCAUAGGCUCAAAGCAUCUUCCUGCCAGUAAUGUAAGUUUUUUACAUUUCGACUCACAUCCA: 0.185 ratio
AGGCCCCGGUCCAGGGCGGGCGGCCUGGCGGCGAUGCCGUACAUGCGCUUCCGCCACCCCCUCAGCGUCUUGGGCAUCAAUUACCAGCAGUUCCUGCGCCACUACCUGGAGAACUACCCG: 0.144 ratio
GACCACAUUCAGUUUGUGCAGAAAAAGCCACCCCGUGAGAAUGGCCAUAAGCAGAUAAGUGGCAGUUCCACUGGAUGUCUCUCUUCUCCAAAUGCUUCAAUGCAAAGCCCUAAGCAUGAG: 0.183 ratio
UCGGAUGCAGCAAUUGAGGCCAUGAACGGGCAGUACCUGUGUAACCGUCCUAUCACUGUGUCUUAUGCCUUCAAGAAGGACUCUAAGGGUGAACGCCAUGGCUCAGCAGCUGAAAGACUC: 0.112 ratio
AACGGAGAACUGGAAGAUAAGCCUCCAGCACCUCCUGUGCGAAUGAGCAGCACCAUCUUUAGCACUGGAGGCAAAGACCCUUUGUCAGCCAAUCACAGUUUGAAACCUUUGCCCUCUGUU: 0.139 ratio
UCACUUUAAAGCAAUUGCAUAAUAGAUAAAAACCUGAACUUUCAUUGGAUUUUUGUUAAUUUUCCUCAUUUUGAAUUAUGUGCACUACCAUAGCUACAUCAGUUUGAUACAGUAUUGAAA: 0.628 ratio
UUUGAAGUACCUGGUCUUAGCAUCUGGACAGACCUCUUAUUAGCUCUUCGUAGUGGUGCAUUUAGGAAAAGACAAGUUUUGGGUCUCAGCGCAGGCCUCAGUUCUGUAUAGGCAAUGCUG: 9.41 ratio

Sample 3
Target: UBE2L6 UBC core domain (UniProt O14933)
Method: yeast two-hybrid
Medium: yeast
Notes: mostly zero background
Reference: not given
Direction: higher = stronger interaction
Measurement: lacZ reporter activity
B1: MYCBP2 RING domain (UniProt O75592); chain TSLKQDADDMCMICFTEALSAAPAIQLDCSHIFHLQCCRRVLENRWLGPRITFGFISCPICKNKINHIVLKD
B2: RNF183 RING domain (UniProt Q96D59); chain EQQGRELEAECPVCWNPFNNTFHTPKMLDCCHSFCVECLAHLSLVTPARRRLLCPLCRQPTVLASGQP
B3: TRIM22 RING domain (UniProt Q8IYM9); chain VKVDIEKEVTCPICLELLTEPLSLDCGHSFCQACITAKIKESVIISRGESSCPVCQTRFQPGNLRP
B4: TRIM26 RING domain (UniProt Q12899); chain PLRSLEEEVTCSICLDYLRDPVTIDCGHVFCRSCTTDVRPISGSRPVCPLCKKPFKKENIRP
B5: RNF122 RING domain (UniProt Q9H9V4); chain AKKLQLYGQTCAVCLEDFKGKDELGVLPCQHAFHRKCLVKWLEVRCVCPMCNKPIASPSEAT
B6: RNF187 RING domain (UniProt Q5TA31); chain ALPAGPAEAACALCQRAPREPVRADCGHRFCRACVVRFWAEEDGPFPCPECADDCWQRAVEP
B7: RNF2 RING domain (UniProt Q99496); chain SPRSLHSELMCPICLDMLKNTMTTKECLHRFCADCIITALRSGNKECPTCRKKLVSKRSLR
B8: ANAPC11 RING domain (UniProt Q9NYG5); chain GICRMAFNGCCPDCKVPGDDCPLVWGQCSHCFHMHCILKWLHAQQVQQHCPMCRQEWKFKE
Residues (chain): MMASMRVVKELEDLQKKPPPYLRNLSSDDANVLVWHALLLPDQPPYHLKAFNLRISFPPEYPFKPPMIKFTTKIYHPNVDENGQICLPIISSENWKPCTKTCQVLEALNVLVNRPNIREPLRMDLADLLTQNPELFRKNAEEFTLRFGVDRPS
B1 (MYCBP2 RING domain): 0
MNDVLENELQCIICSEYFIEAVTLNCAHSFCSYCINEWMKRKIECPICRKDIKSKTYSL (RNF8 RING domain (UniProt O76064)): 0
B2 (RNF183 RING domain): 0
B3 (TRIM22 RING domain): 0
B4 (TRIM26 RING domain): 0
B5 (RNF122 RING domain): 2440
B6 (RNF187 RING domain): 0
B7 (RNF2 RING domain): 0
B8 (ANAPC11 RING domain): 0

Sample 4
Target: CREBZF, bZIP domain (human)
Method: DHFR protein complementation
Medium: yeast
Notes: single substitutions, most at no-binding floor
Reference: wild-type JUN-FOS pair
Direction: higher = stronger binding
Measurement: binding fitness
Starting sequence: JUN, bZIP domain (human); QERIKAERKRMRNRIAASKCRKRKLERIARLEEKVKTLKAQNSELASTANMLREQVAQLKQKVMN; partner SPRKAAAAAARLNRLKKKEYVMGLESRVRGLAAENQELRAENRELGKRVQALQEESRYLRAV
T48L: -1.36 natural log
R30L: -1.53 natural log
L38K: -1.5 natural log
A29T: -1.35 natural log
L31M: -1.41 natural log
N42M: -1.42 natural log
I28F: -1.54 natural log
K34A: -1.37 natural log
L38N: -1.56 natural log
A40T: -1.36 natural log
L45W: -1.42 natural log
K36M: -1.41 natural log
E33R: -1.5 natural log
K36W: -1.54 natural log

Sample 5
Target: RNA binding protein fox-1 homolog 2, RRM domain, GST-SBP tag (RBFOX2, Homo sapiens, UniProt O43251-10, residues 100-194)
Method: RNA Bind-n-Seq
Molecule type: RNA
Medium: in vitro
Concentration: 365 nM
Notes: natural RNA segment, single round, ends assumed
Reference: no-protein control
Direction: higher = stronger binding
Measurement: RBNS enrichment (R)
Constant ends, left off below: GGGAGUUCUACAGUCCGACGAUC … UGGAAUUCUCGGGUGCCAA
Residues (chain): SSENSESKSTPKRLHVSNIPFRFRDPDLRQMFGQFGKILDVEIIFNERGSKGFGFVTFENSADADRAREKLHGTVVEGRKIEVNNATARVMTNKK
GCCCACCUUCUUUUUCUUUCCUUCCUACCUGCCUUCUUUGAUGCCAACCCCAACAGACCCGUAGGGGGAGAAAAGGGAGGAAAAAAGUAAUUUUAAGGGGCCAAAGCUUU: 0.325
AAAUCUACGAUUUCUAAUUACCUGGAGUCAGCCCCCACUAGUCUGAGUACUUCGGCAAAUUCACUUUUUGUCUCACCUUCAUCAUAUGGCUCAGUGGUUAAGAGUACCUG: 0.264
CUGAAGCAACCUUCAAUUUUCAUAAGCCAAGUCUUGGGUCCAGGGAACUCCACAGUGCUCCCACCCCCACCCCCUCUACUGAUUACAAGGAAUCCUACAUGCCAUCUUCA: 0.458
AUAUGAGUCAAGUGCCAGCUGGACCUGAGGCCUGCUUCCCCGCGUGCGGGGCAGAGGCCCUUCUCUGCGCCAAAUGUCUGACUACACAGUAUACACAGGACAUUGUUGCU: 0.349
GCGUGGAAUCACUUUCCAGGCCAGAGCCCUAGAGGGGUGCUGGUCUCCCUGCUUUGCUGUAUGGUGACCCCUAAUCCGCUUCUCUGGGCUCAGAUCUGUCCAAGGGCGGA: 0.332
CUGGGUCCAAAGUGAUUUACAUAAAUUUAUAAUGAAAAUAAACAUGUAUAAAAUUUAAAAAAACAGACUCCCAUUUCUUAAAAACGGAUAAGUUUGAAAGGAAACUGCUA: 0.468
CAGAAACCCCACUUCCAUUGUAUUGUCUGACACAUGCUCUCAAUAUAUAAUAAAUGGGAAAUGUCGAUUUUCAAUAAUAGACUUAUAUGCAGGCUGUCGUUCCGGUUAUG: 0.318
CAGUAGCAAAAUUAAUUGUGAAGUAGCAAUGAAAAUAACCUUCUGGUUGGGGGCCACCAUGAGGAACUGUACUAAAGGGUGGCAGCAUGAGGAAGGUUGGGUACCGCUGG: 1.44
CCCGGGAACCCCUUCCACCAUAGAGACAACCCCUCGCUAGACGUGAACUCAGAACUGUCGGAGGAAAGACAACACAACCAACGCGAAACCAAUUCCUCAUCCUCAGAUGC: 0.353
ACAGAGCUACCCACUGCAGCGGCCUGACUGUGCAGCACUCAGCUCUUUGGCUCUCUCUGAAAUGCCCGUCUCAUCCUGUCUUUUUCGAGCAUGGCUCACAGGCCUUGUGU: 0.504
GAAGUCUUUAAUAAAUAACCCAUAAUUGAAGUGUAUAAUAUAAAAAAUUUUAAAAAUCUAAGCAGCUUAUUGUUUCUCUGAAAGUGUGUGUAGUUUUACUUUCCUAAGGA: 0.621
UGCCUCCACCUCCCCUAUCCACCAAGAUGUAGAAUUGUGAAUAUAACUGCAAAAAGUUAGUCUUAUGUAUAGACAUUAUUUUCGUCGUAUGUUUCUAUAUUUUGAAACAG: 0.602

Excerpt of the above (sample 1):
G13D: 0.973
I9M: 2.79
K4Q: 0.977
K4R: 1.28
A1V: 1.18
